Experimental data from different studies.
Lines come from different studies, so protocols differ. ± marks the error that the study gave.
HLA class I histocompatibility antigen, A alpha chain allele A*02:01: HLA class I histocompatibility antigen, A alpha chain, allele A*02:01 (Homo sapiens, UniProt P04439)
Sequence of UniProt Q8IUN9 (whole entry, looked up): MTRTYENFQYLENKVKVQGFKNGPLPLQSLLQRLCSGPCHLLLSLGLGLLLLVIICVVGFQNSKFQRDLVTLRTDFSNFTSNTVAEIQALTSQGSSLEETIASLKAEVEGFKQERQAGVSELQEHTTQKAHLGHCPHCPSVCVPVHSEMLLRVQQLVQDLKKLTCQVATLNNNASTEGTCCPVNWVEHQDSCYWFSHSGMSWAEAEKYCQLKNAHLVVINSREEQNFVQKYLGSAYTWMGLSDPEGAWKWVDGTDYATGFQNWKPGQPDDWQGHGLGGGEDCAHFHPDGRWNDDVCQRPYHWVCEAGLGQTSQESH
Sequence of UniProt Q9Y239 (whole entry, looked up): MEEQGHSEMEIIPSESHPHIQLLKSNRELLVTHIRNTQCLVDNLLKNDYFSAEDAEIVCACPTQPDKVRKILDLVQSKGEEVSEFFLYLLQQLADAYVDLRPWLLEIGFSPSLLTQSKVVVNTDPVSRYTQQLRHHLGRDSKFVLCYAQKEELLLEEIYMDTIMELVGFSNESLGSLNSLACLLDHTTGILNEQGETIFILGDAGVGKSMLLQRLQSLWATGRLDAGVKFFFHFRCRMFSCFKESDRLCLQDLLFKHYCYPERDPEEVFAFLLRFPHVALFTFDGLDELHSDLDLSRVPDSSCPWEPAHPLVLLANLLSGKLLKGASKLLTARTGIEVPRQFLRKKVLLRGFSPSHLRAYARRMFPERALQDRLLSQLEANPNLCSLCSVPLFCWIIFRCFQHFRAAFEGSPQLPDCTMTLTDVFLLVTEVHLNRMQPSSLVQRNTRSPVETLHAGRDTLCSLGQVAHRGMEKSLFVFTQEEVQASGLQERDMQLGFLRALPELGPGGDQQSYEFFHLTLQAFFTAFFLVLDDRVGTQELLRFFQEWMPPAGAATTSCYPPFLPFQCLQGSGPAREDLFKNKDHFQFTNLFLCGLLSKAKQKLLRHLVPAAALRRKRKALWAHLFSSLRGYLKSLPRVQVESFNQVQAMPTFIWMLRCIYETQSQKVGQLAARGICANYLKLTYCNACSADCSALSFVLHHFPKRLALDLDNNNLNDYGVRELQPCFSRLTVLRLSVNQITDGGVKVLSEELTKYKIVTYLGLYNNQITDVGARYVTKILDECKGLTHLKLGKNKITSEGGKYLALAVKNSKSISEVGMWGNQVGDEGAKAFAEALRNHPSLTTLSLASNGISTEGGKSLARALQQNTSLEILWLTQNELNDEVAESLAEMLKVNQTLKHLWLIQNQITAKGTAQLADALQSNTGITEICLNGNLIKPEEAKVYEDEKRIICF
Sequence of UniProt Q92731 (whole entry, looked up): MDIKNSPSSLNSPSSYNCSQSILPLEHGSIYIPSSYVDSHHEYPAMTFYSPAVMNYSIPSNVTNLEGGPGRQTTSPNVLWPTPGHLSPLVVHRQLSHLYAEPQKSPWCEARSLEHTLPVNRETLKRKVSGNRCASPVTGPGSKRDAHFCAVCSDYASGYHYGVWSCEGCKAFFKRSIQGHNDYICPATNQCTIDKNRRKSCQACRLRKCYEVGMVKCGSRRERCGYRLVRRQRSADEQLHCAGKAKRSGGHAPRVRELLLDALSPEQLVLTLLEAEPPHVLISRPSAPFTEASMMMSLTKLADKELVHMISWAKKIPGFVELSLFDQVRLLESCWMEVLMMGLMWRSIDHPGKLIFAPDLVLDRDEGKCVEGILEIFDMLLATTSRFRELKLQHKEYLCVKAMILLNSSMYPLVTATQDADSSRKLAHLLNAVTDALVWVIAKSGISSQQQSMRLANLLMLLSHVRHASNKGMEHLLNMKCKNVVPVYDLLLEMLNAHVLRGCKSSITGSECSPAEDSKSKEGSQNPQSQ
Sequence of UniProt P18206 (whole entry, looked up): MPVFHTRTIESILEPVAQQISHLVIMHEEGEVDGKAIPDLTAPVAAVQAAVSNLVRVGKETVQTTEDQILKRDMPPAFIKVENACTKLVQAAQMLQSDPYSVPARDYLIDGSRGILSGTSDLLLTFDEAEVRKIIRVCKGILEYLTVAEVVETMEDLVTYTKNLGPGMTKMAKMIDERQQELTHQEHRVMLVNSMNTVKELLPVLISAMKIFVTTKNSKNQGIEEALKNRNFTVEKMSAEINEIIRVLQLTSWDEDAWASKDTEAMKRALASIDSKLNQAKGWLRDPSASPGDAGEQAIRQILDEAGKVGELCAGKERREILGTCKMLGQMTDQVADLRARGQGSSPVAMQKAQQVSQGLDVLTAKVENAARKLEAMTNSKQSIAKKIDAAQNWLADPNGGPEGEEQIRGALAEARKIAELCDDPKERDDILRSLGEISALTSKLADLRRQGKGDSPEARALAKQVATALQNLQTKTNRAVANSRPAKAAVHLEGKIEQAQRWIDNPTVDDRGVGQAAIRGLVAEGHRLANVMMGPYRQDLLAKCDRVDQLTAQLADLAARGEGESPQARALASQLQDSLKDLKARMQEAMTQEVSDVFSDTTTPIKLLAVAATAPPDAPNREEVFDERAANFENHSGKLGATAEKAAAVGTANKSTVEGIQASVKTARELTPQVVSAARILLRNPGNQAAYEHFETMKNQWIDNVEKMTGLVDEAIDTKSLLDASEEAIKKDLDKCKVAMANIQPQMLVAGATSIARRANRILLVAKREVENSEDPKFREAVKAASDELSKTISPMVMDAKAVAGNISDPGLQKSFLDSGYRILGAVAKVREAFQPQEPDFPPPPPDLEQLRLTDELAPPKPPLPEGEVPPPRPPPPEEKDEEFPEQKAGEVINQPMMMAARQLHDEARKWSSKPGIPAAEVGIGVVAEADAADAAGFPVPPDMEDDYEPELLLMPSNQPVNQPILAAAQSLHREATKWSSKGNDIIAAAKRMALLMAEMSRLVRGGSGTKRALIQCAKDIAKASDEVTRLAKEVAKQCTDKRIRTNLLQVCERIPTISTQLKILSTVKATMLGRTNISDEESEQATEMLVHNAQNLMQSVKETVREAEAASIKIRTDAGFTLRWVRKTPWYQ
Sequence of UniProt Q13283 (whole entry, looked up): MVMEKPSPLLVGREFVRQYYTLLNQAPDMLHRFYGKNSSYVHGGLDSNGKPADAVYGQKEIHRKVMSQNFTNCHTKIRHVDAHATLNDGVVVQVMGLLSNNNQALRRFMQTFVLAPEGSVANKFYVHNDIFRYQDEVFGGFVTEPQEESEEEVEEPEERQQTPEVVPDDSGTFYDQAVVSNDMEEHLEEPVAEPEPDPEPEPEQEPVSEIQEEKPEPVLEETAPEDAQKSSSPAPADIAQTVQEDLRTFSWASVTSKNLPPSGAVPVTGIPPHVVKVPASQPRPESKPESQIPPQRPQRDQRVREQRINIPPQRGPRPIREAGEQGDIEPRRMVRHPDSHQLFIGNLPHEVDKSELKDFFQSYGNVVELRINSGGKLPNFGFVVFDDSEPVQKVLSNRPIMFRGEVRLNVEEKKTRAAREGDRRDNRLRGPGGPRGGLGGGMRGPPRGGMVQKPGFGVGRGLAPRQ

Molecule | target or system | test | test system | setting | how to read | quantity | result
asialo ovine submaxillary mucin | CLEC10A (Homo sapiens, UniProt Q8IUN9) | glycan microarray |  |  |  | Kd | 95 ± 18 nM
IMNSLSLFA | HLA class I histocompatibility antigen, A alpha chain allele A*02:01 | peptide-MHC stability, brefeldin A chase | peptide, T2 cells |  |  | complex half-life | 3.4 h
Peginesatide | UT7/EPO | phosphorylation, agonist, measured: phospho-ERK1/2 |  | 10 min |  | EC50 | 0.354 nM
SLPDRILDA | HLA class I histocompatibility antigen, A alpha chain allele A*02:01 | peptide-MHC stability, brefeldin A chase | peptide, T2 cells |  |  | complex half-life | 0.74 h
Phytol | uncharacterized protein (Drosophila suzukii, UniProt A0AB39ZCT4) | bis-ANS displacement, fluorescence competition binding |  | pH 7.4 |  | IC50 | > 50000 nM
ALYDVRTIL | HLA class I histocompatibility antigen, A alpha chain allele A*02:01 | peptide-MHC stability, brefeldin A chase | peptide, T2 cells |  |  | complex half-life | 6.64 h
ILEAAKSIAAATSALVKAASAAQRE | Vinculin, Vd1 head domain (VCL, Homo sapiens, UniProt P18206) | binding, isothermal titration calorimetry | peptide | 25 °C |  | Kd | 34 ± 6 nM
sacituzumab | rat TROP2 | binding, bio-layer interferometry |  |  |  | Kd | no binding
epigallocatechin | ESR2 (Homo sapiens, UniProt Q92731) | array formation, agonist | GFP-ERβ PRL-HeLa | 1 h |  | EC50 | 1770 nM
11-deoxycorticosterone | CYP11B2 (human) | substrate binding, stopped-flow global kinetic fitting | purified enzyme | model, linear, 4 state, CS-IF, added: 10-fold excess adrenodoxin |  | Kd | 2020 nM
polyuridylic acid | G3BP1 (Homo sapiens, UniProt Q13283) | binding, biolayer interferometry |  | pH 7.5 |  | Kd | 9360 ± 40 nM
GSGAGIESNV | human SCRIB PDZ3-4 tandem (MBP fusion) | automated holdup | peptide, crude extract | concentration not given, uncorrected, unit not given | reference: biotin control resin, higher = stronger binding | binding intensity | 0.765
FITC-ATP | NOD1 (Homo sapiens, UniProt Q9Y239) | fluorescence polarization |  |  |  | Kd | 25 nM
LMDLSTTPL | HLA class I histocompatibility antigen, A alpha chain allele A*02:01 | peptide-MHC stability, brefeldin A chase | peptide, T2 cells |  |  | complex half-life | 2.19 h
EKPIDSETKM | human MAGI1-3/6 PDZ construct (MBP fusion) | automated holdup | peptide, purified PDZ protein | concentration not given, unit not given | reference: biotin control resin, higher = stronger binding | binding intensity | -0.205

A few entries again:
Molecule | target or system | test | test system | setting | how to read | quantity | result
polyuridylic acid | G3BP1 (Homo sapiens, UniProt Q13283) | binding, biolayer interferometry |  | pH 7.5 |  | Kd | 9360 ± 40 nM
FITC-ATP | NOD1 (Homo sapiens, UniProt Q9Y239) | fluorescence polarization |  |  |  | Kd | 25 nM
